Measurements gathered from unrelated publications.
A part holds a random share of what one study measured. Positions count from the first letter of the parent shown.

Set 1 — target: CEP164, C-terminal peptide (human); technique: DHFR complementation, deep sequencing; sample: yeast; reference: wild type; reading: higher = weaker binding
Setting: single substitutions, model-inferred values
Starting sequence: PDZK1, PDZ domain 2 (human); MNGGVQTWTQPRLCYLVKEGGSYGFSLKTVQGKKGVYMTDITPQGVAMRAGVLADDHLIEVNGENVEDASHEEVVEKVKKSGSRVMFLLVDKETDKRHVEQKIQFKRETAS; partner HNRVKVYRF
`G32L` — result for “binding free energy change”: 1.06 kcal/mol.
For `K92M`, “binding free energy change” read 0.0217 kcal/mol.
Under “binding free energy change”, `E73D` is recorded as -0.0388 kcal/mol.
Under “binding free energy change”, `K33I` is recorded as -0.17 kcal/mol.
`M38W` — result for “binding free energy change”: 1.18 kcal/mol.
`V17G`: “binding free energy change” 0.775 kcal/mol.
`Q6A` — result for “binding free energy change”: -0.0203 kcal/mol.
For `L16C`, “binding free energy change” read 0.753 kcal/mol.
`F87R`: “binding free energy change” 1.7 kcal/mol.
`Y23P`: “binding free energy change” 1.39 kcal/mol.
`Q31T` — result for “binding free energy change”: 0.0611 kcal/mol.
Under “binding free energy change”, `K34N` is recorded as 0.314 kcal/mol.
`D95H` — result for “binding free energy change”: -0.211 kcal/mol.
`Y37V`: “binding free energy change” 0.345 kcal/mol.
`E64L`: “binding free energy change” 0.164 kcal/mol.
For `E93F`, “binding free energy change” read -0.22 kcal/mol.
`K106S` — result for “binding free energy change”: -0.2 kcal/mol.

Set 2 — target: CCND1, cyclin fold, Cln2 fusion (human); technique: yeast growth competition, sequencing; sample: yeast; setting: weak parent motif; reference: not given; reading: higher = stronger binding
Starting sequence: SAMHD1 docking peptide (human); ASKSRVQLFKDDP; partner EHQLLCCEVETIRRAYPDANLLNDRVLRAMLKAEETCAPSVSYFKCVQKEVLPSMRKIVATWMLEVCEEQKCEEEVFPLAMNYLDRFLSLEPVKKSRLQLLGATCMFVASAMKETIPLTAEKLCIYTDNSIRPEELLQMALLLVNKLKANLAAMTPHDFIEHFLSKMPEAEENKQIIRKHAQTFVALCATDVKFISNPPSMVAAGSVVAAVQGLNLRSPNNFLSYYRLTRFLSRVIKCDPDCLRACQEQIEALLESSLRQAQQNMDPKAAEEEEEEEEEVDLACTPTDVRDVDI
`S2E` — result for “normalised enrichment score”: 0.333.
For `R5Y`, “normalised enrichment score” read 0.325.
`S2L`: “normalised enrichment score” 0.217.
`L8A` — result for “normalised enrichment score”: -0.152.
For `F9S`, “normalised enrichment score” read 0.00696.
For `S2I`, “normalised enrichment score” read 0.694.
For `S2H`, “normalised enrichment score” read 0.634.
`S2A` — result for “normalised enrichment score”: 0.388.
Under “normalised enrichment score”, `Q7P` is recorded as 0.12.
`Q7L`: “normalised enrichment score” 0.375.
`R5M`: “normalised enrichment score” 0.968.
For `L8Y`, “normalised enrichment score” read 0.0622.
Under “normalised enrichment score”, `F9R` is recorded as -0.112.
`K3I` — result for “normalised enrichment score”: 0.57.
For `D11V`, “normalised enrichment score” read 0.177.
Under “normalised enrichment score”, `D11P` is recorded as 0.391.
Under “normalised enrichment score”, `F9T` is recorded as -0.0424.
`S4V`: “normalised enrichment score” 1.06.
`K10M` — result for “normalised enrichment score”: 0.801.
For `Q7H`, “normalised enrichment score” read 0.412.
For `Q7F`, “normalised enrichment score” read 0.273.
For `F9I`, “normalised enrichment score” read 0.254.
`S4C`: “normalised enrichment score” 2.18.
`L8F` — result for “normalised enrichment score”: 0.078.
`R5G` — result for “normalised enrichment score”: 0.358.

Set 3 — technique: DHFR PCA, deep sequencing; sample: yeast; added: (+)-ABA 0.11 µM; reference: wild-type fitted maximum; reading: higher = stronger binding
Target: ABI1, truncated, D143A, DHFR fusion (Arabidopsis thaliana)
Setting: methotrexate growth selection, single substitutions
Starting sequence: PYL1, truncated, DHFR fusion (Arabidopsis thaliana); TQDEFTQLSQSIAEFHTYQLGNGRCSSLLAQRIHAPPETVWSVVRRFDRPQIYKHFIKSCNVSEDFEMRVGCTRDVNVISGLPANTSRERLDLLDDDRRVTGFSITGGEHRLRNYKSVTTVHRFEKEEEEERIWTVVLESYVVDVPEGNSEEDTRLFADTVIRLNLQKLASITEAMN
`Y53D`: “relative binding score” -0.45%.
`R74V` — result for “relative binding score”: 0.426%.
Under “relative binding score”, `V100P` is recorded as -0.241%.
For `T154Y`, “relative binding score” read -28.4%.
`L138A`: “relative binding score” -6.99%.
Under “relative binding score”, `E67M` is recorded as 0.306%.
`L112H` — result for “relative binding score”: -0.79%.
`N61R` — result for “relative binding score”: 52.6%.
Under “relative binding score”, `N77C` is recorded as 55.3%.
`L91H`: “relative binding score” -4.61%.
`V44T` — result for “relative binding score”: -6.17%.
`E131H` — result for “relative binding score”: 55.1%.
`E131L`: “relative binding score” 34.3%.

Set 4 — target: JDP2, bZIP domain (human); technique: DHFR protein complementation; sample: yeast; reference: wild-type JUN-FOS pair; reading: higher = stronger binding
Setting: single substitutions, most at no-binding floor
Starting sequence: JUN, bZIP domain (human); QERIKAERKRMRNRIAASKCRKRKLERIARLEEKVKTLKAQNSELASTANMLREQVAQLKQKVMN; partner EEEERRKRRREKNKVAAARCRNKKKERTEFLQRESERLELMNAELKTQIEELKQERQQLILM
`A46V` gave a binding fitness of 0.25 natural log.
For `K36A`, the binding fitness was 0.347 natural log.
For `M51Q`, the binding fitness was 0.292 natural log.
With `E33N` the binding fitness was 0.174 natural log.
`K34G` gave a binding fitness of 0.304 natural log.
For `E54W`, the binding fitness was 0.0345 natural log.
The binding fitness of `S43E` is reported as 0.317 natural log.
`E44H` has a binding fitness of 0.244 natural log.
For `E32R`, the binding fitness was 0.264 natural log.
The binding fitness of `L31S` is reported as 0.112 natural log.
`N42C` gave a binding fitness of 0.193 natural log.
With `K39F` the binding fitness was 0.199 natural log.
The binding fitness of `L38H` is reported as -0.081 natural log.
The binding fitness of `E32Q` is reported as 0.162 natural log.
The binding fitness of `R53I` is reported as 0.196 natural log.

Set 5 — technique: universal PBM; form: double-stranded DNA, one strand shown; sample: in vitro; concentration: 600 nM; reading: higher = stronger binding
Target: Sal-like protein 4, full length isoform A (SALL4, Homo sapiens, UniProt Q9UJQ4, residues 1-1053)
Sequence of UniProt Q9UJQ4 (whole entry, looked up): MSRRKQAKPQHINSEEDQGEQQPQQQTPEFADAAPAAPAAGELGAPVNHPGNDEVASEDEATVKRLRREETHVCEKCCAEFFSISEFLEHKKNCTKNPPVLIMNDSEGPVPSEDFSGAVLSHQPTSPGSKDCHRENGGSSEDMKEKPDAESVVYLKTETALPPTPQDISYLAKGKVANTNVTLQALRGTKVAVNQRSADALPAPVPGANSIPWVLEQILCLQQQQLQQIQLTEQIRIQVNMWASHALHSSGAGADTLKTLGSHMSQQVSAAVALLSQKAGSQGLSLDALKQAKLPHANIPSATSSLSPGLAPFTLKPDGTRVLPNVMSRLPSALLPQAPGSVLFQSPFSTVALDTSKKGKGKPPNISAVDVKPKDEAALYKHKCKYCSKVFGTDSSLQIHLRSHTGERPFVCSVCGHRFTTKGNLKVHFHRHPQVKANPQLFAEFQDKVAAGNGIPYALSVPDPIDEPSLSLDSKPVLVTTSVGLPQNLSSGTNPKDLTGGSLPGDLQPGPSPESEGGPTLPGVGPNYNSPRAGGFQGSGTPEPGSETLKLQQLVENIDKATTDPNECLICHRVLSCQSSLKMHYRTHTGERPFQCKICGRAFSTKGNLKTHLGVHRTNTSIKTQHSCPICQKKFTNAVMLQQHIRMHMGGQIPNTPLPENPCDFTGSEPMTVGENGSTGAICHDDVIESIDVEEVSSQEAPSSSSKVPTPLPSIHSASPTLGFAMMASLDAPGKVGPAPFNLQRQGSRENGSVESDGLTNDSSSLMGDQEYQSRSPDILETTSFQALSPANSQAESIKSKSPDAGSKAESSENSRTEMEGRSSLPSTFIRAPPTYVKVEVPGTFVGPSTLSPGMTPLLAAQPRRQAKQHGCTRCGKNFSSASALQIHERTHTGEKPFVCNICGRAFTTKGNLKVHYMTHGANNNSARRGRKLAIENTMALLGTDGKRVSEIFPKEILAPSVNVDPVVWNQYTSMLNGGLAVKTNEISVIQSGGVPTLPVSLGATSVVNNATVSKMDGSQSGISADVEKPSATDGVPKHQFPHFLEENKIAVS
Setting: 8-mer, flanks averaged, mean of replicates
`ACCAGCGC` has an E-score of -0.189.
`ATGAAAAT` has an E-score of 0.368.
`ATCAGAAA` gave an E-score of 0.153.
`AAAAGGCG` has an E-score of -0.104.
`AGGTATTG` has an E-score of 0.162.
For `GACCTATA`, the E-score was 0.249.
The E-score of `AGGTGCGG` is reported as -0.201.
`CCCATTTC` has an E-score of -0.0538.
The E-score of `AAAGAGCA` is reported as 0.0609.
For `GCCCTTTA`, the E-score was -0.103.
`ATGGAGTG` has an E-score of -0.0709.
With `GGGTCAAA` the E-score was -0.117.
`AGCGGTTC` gave an E-score of -0.135.
The E-score of `CTTGCAGA` is reported as -0.0747.
`ACTAATCT` gave an E-score of 0.148.
The E-score of `ATGTCTGC` is reported as -0.0823.
With `CAGTCGAC` the E-score was -0.0514.
For `CGTCCCAA`, the E-score was -0.197.
With `CACCGACA` the E-score was -0.187.
The E-score of `GGTCAAAC` is reported as -0.0298.
For `ACAGAGTC`, the E-score was -0.108.
`AGTCAATC` gave an E-score of 0.0406.
`GACTCGAA` gave an E-score of -0.174.

Mixed results
Under cross-linked residues, `CPSF2 (Homo sapiens, UniProt Q9P2I0)` is recorded as “E627 to K487” (CPSF3 (Homo sapiens, UniProt Q9UKF6); cross-linking MS; cell fractions; added: DMTMM).
For `PhoQ, residues 284 288 289 292 302 303 GASLAW`, the fold induction was 0.905 (PhoP, residues 12 14 15 18 19 TPWLV (Escherichia coli, UniProt P23836); Sort-seq, item: YFP reporter; E. coli; PhoQ-PhoP variant library, added: 10 µM Mg2+; reference: high Mg2+ state, higher = stronger signaling).
`NME2 (Homo sapiens, UniProt P22392)` — result for cross-linked residues: “K85 to D115” (NME3 (Homo sapiens, UniProt Q13232); cross-linking MS; cell fractions; added: DMTMM).
Under interaction screen, `IDH3B (Homo sapiens, UniProt O43837)` is recorded as “cross-linked” (IDH3A (Homo sapiens, UniProt P50213); cross-linking MS; hits only).
Under cross-linked residues, `IPO7 (Homo sapiens, UniProt O95373)` is recorded as “D733 to K42” (H1-10 (Homo sapiens, UniProt Q92522); cross-linking MS; cell fractions; added: DMTMM).

A few entries again (set 5):
`ACCAGCGC` has an E-score of -0.189.
`ATGAAAAT` has an E-score of 0.368.
`ATCAGAAA` gave an E-score of 0.153.
`AAAAGGCG` has an E-score of -0.104.
`AGGTATTG` has an E-score of 0.162.
For `GACCTATA`, the E-score was 0.249.
The E-score of `AGGTGCGG` is reported as -0.201.
`CCCATTTC` has an E-score of -0.0538.
The E-score of `AAAGAGCA` is reported as 0.0609.
